# Measured values from different studies.
# Every numbered part comes from another study and shows a few of its results, in no order.
# UniProt Q08345, sequence (whole entry, looked up): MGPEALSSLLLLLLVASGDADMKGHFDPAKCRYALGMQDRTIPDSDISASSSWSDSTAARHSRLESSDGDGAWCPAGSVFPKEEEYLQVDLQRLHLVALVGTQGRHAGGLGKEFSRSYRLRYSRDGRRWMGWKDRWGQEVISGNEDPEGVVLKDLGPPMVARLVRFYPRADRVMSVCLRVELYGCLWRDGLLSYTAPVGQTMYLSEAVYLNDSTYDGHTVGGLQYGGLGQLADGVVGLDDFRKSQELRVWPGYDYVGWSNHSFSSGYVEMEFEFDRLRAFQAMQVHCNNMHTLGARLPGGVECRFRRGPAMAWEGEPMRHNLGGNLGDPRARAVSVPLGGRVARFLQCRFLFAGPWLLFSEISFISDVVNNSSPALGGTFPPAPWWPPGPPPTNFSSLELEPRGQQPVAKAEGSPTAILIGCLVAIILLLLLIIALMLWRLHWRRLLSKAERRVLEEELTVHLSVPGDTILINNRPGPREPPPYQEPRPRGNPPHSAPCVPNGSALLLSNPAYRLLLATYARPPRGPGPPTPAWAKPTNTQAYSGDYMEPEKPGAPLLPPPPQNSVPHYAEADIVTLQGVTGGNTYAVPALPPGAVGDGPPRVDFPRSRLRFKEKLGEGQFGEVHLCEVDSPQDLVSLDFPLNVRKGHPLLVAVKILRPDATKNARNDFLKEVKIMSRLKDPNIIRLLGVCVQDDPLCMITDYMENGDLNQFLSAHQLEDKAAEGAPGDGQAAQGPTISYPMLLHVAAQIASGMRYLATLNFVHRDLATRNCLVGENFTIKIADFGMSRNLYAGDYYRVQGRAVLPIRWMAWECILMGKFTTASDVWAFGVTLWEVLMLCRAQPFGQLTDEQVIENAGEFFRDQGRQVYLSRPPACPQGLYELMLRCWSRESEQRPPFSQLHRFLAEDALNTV
# UniProt P29597, sequence (whole entry, looked up): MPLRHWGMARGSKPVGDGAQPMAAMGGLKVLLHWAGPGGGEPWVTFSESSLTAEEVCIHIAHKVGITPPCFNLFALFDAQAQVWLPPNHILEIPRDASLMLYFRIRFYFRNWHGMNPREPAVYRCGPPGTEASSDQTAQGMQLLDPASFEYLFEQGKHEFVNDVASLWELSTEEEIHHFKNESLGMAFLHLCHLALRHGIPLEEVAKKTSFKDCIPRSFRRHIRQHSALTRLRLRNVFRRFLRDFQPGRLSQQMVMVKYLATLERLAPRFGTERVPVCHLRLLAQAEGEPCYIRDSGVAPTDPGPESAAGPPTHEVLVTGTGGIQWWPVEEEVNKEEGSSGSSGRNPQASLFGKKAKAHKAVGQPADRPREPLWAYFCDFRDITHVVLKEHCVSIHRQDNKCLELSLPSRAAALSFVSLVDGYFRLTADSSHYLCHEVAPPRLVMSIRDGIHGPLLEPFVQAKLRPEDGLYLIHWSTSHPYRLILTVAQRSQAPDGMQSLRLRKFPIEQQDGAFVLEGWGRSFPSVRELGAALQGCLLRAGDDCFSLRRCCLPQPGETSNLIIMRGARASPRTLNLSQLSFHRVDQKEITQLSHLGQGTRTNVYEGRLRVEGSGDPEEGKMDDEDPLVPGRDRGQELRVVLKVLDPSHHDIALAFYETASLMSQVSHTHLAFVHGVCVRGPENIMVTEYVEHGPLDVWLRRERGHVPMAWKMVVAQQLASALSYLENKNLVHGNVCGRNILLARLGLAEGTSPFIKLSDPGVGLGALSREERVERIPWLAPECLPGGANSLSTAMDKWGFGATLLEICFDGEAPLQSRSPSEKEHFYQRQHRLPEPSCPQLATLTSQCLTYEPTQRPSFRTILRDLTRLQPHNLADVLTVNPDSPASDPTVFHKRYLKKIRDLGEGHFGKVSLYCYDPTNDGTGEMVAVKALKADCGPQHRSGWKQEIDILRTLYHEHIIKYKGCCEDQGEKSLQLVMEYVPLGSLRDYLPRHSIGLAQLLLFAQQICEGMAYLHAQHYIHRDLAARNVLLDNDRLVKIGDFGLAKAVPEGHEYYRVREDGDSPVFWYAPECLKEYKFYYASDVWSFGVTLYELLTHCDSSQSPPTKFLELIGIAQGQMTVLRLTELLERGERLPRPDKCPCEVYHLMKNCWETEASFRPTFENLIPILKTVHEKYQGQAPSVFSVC
# UniProt Q8TDC3, sequence (whole entry, looked up): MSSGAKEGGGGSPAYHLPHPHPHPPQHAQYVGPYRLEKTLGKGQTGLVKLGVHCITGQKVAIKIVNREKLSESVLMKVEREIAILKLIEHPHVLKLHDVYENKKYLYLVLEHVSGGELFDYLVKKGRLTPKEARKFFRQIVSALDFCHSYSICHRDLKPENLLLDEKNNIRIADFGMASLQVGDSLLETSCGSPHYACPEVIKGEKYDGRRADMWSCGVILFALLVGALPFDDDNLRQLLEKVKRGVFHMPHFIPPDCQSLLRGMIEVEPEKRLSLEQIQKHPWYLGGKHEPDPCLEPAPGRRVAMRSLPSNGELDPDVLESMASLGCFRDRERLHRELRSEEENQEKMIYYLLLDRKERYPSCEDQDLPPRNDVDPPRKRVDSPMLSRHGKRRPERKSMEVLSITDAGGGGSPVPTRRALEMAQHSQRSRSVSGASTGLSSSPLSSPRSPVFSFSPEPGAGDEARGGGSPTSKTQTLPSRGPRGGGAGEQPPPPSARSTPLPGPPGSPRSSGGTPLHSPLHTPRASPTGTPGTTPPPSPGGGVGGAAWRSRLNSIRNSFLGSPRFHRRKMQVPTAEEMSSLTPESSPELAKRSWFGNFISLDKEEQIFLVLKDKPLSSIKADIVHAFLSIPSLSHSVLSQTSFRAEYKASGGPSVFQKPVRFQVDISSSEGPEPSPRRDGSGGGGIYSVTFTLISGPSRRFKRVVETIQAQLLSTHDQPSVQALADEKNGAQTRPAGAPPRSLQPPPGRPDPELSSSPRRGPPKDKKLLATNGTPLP
# UniProt Q9H093, sequence (whole entry, looked up): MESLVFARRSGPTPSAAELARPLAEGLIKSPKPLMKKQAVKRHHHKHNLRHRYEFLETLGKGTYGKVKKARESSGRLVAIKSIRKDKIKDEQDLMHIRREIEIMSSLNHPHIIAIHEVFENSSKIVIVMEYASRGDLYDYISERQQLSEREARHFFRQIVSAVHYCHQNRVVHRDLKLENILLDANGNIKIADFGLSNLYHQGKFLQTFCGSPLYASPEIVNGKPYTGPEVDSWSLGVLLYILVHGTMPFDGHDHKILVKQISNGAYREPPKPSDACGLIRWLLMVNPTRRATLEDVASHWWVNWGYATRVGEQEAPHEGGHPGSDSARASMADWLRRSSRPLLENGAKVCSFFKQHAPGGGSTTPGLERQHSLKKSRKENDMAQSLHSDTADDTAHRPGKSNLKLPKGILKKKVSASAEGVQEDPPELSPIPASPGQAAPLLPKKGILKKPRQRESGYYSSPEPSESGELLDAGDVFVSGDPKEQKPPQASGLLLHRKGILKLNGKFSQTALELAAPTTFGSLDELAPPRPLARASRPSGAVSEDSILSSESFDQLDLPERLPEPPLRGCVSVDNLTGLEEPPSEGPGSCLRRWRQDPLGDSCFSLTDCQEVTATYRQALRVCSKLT
# UniProt O14965, sequence (whole entry, looked up): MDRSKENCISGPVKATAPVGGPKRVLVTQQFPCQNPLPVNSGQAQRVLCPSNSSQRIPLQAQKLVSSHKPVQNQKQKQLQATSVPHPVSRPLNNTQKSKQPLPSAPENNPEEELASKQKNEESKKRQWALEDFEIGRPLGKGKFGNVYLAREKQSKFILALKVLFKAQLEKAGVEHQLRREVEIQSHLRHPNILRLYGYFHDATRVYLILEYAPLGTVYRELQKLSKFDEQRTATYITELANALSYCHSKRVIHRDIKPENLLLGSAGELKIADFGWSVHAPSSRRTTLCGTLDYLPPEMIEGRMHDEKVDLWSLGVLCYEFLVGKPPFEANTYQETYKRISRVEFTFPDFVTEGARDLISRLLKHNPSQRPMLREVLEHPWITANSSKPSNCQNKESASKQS
# UniProt Q9Y2U5, sequence (whole entry, looked up): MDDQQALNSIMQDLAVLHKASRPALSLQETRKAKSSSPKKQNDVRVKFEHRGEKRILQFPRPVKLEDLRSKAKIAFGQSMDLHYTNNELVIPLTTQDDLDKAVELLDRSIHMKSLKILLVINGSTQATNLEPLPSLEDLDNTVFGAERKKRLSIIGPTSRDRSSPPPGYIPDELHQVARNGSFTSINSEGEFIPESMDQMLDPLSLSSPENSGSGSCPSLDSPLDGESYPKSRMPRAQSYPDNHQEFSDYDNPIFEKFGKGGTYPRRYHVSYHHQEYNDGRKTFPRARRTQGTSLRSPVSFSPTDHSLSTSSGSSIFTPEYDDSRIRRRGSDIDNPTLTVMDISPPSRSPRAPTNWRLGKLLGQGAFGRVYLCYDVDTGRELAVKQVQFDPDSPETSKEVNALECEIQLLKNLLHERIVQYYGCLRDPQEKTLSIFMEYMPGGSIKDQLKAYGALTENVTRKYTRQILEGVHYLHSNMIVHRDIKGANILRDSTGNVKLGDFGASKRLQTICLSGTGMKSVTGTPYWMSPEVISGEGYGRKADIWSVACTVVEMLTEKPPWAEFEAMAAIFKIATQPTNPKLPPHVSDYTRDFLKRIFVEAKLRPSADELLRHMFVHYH
# UniProt P41279, sequence (whole entry, looked up): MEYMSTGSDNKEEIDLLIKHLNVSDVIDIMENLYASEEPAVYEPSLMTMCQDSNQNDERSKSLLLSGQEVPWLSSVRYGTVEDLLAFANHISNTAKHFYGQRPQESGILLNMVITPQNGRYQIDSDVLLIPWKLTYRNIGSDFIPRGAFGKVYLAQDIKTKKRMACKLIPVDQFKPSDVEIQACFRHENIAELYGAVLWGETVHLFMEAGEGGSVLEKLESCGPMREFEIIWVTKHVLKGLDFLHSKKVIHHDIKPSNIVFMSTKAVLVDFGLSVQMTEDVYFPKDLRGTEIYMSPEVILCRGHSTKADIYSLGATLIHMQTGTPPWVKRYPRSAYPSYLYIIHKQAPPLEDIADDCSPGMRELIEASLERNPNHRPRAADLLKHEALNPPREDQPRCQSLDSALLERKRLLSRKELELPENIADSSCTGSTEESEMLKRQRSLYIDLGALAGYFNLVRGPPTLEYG

# Study 1 — cell line: HEK-293T; effect on: pseudovirus infection; method: FDA-approved drug library counter-screen; organism: VSV pseudotyped with VSV-G; tested at: 10 µM; time: 16 h; relative to: vehicle-treated
SMILES,GFP-positive cells [%]
CCOC(=O)[C@H](CCc1ccccc1)N[C@H]1CCc2ccccc2N(CC(=O)O)C1=O,104
OCCN1C[C@H](O)[C@@H](O)[C@H](O)[C@H]1CO,95
C[C@]12CCC(=O)C=C1CC[C@@H]1[C@@H]2CC[C@@]2(C)[C@H]1CC[C@]2(C)O,96.3
COc1cc(C)c(/C=C/C(C)=C/C=C/C(C)=C/C(=O)O)c(C)c1C,128
Clc1ccc(CCC(Cn2ccnc2)Sc2c(Cl)cccc2Cl)cc1 (stereo not shown),105
Cc1cn[nH]c1,108
O=c1[nH]c(=O)n([C@H]2C[C@H](O)[C@@H](CO)O2)cc1I,95.1
CC(C)C(=O)Oc1ccc(CO)cc1[C@H](CCN(C(C)C)C(C)C)c1ccccc1,111
C[C@H](CCC(=O)O)[C@H]1CC[C@H]2[C@@H]3[C@H](O)C[C@@H]4C[C@H](O)CC[C@]4(C)[C@H]3CC[C@]12C,90.9
Cc1nnc(NS(=O)(=O)c2ccc(N)cc2)s1,96.5
CN(C)c1ccc(C(=C2C=CC(=[N+](C)C)C=C2)c2ccc(N(C)C)cc2)cc1,15.1
CC1=C(C/C=C(\C)CCC[C@H](C)CCC[C@H](C)CCCC(C)C)C(=O)c2ccccc2C1=O,121
O=C(NC1CCN(CCCCC2(C(=O)NCC(F)(F)F)c3ccccc3-c3ccccc32)CC1)c1ccccc1-c1ccc(C(F)(F)F)cc1,69
O=P(O)(O)C(O)(Cn1ccnc1)P(=O)(O)O,108
CN1C(=O)OC(C)(C)C1=O,89.4
Nc1nc(NC2CC2)c2ncn([C@H]3C=C[C@@H](CO)C3)c2n1,112
CC(CCc1ccccc1)NCC(O)c1ccc(O)c(C(N)=O)c1 (stereo not shown),89.8
Cc1ccc(Cl)c(Nc2ccccc2C(=O)O)c1Cl,74.3
COc1cccc2c1C(=O)c1c(O)c3c(c(O)c1C2=O)C[C@@](O)(C(C)=O)C[C@@H]3O[C@H]1C[C@H](N)[C@H](O)[C@H](C)O1,147
C[N+]1(C)[C@@H]2C[C@@H](OC(=O)[C@H](CO)c3ccccc3)C[C@H]1[C@@H]1O[C@@H]12,103
CCN(CC)CCNC(=O)c1ccc(N)cc1,116
C[C@]12CC[C@H]3[C@@H](CC[C@@]45O[C@@H]4C(O)=C(C#N)C[C@]35C)[C@@H]1CC[C@@H]2O,93.8
CC=CC(=O)N(CC)c1ccccc1C (mixture of isomers),120
Cn1c(=O)c2c(ncn2CC(O)CO)n(C)c1=O (stereo not shown),80.5
C[C@]12CC[C@H](O)CC1=CC[C@@H]1[C@@H]2CC[C@]2(C)C(c3cccnc3)=CC[C@@H]12,133

# Study 2 — host: mouse C57BL/6J male; relative to: vehicle
# SMILES: CN1CC[C@]23c4c5ccc(O)c4O[C@H]2[C@@H](O)C=C[C@H]3[C@H]1C5
conditions,respiration rate [%]
"10 mg/kg, 120 min",176
"30 mg/kg, 120 min",87
"30 mg/kg, 20 min",47
"30 mg/kg, 40 min",39
"10 mg/kg, 60 min",87
"30 mg/kg, 80 min",66
"10 mg/kg, 40 min",80
"10 mg/kg, 100 min",150

# Study 3 — effect on: enzyme activity; mode: inhibitor; tested at: 0.5 µM; relative to: control
# Compound: COC[C@H]1OC(=O)c2coc3c2[C@@]1(C)C1=C(C3=O)[C@@H]2CCC(=O)[C@@]2(C)C[C@H]1OC(C)=O
target,remaining activity [%]
"Serine/threonine-protein kinase N2 (PKN2, Homo sapiens, UniProt Q16513)",98.5
"Casein kinase II subunit alpha' (CSNK2A2, Homo sapiens, UniProt P19784)",98.3
"Serine/threonine-protein kinase BRSK1 (BRSK1, Homo sapiens, UniProt Q8TDC3)",91.2
"Mitogen-activated protein kinase 10 (MAPK10, Homo sapiens, UniProt P53779)",96.8
"Calcium/calmodulin-dependent protein kinase type 1D (CAMK1D, Homo sapiens, UniProt Q8IU85)",95.9
"Myotonin-protein kinase (DMPK, Homo sapiens, UniProt Q09013)",98.7
"Cyclin-dependent kinase 2, with cyclin A (CDK2, Homo sapiens, UniProt P24941)",93.5
"Aurora kinase A (AURKA, Homo sapiens, UniProt O14965)",93.9
"Proto-oncogene tyrosine-protein kinase ROS (ROS1, Homo sapiens, UniProt P08922)",100
"Rho-associated protein kinase 2 (ROCK2, Homo sapiens, UniProt O75116)",88.2
"Mitogen-activated protein kinase kinase kinase 2 (MAP3K2, Homo sapiens, UniProt Q9Y2U5)",98.4
"NT-3 growth factor receptor (NTRK3, Homo sapiens, UniProt Q16288)",87.8
"Mitogen-activated protein kinase kinase kinase 8 (MAP3K8, Homo sapiens, UniProt P41279)",108

# Study 4 — effect on: cell-free assay; method: competition with immobilised ligand; tested at: 1 µM
# Compound: N#CC1(c2ccccn2)CCN(Cc2cc(C(=O)O)c(=O)n3ccccc23)CC1
target,remaining binding [%]
"Epithelial discoidin domain-containing receptor 1 (DDR1, Homo sapiens, UniProt Q08345)",100
"Serine/threonine-protein kinase PAK 3 (PAK3, Homo sapiens, UniProt O75914)",100
"5'-AMP-activated protein kinase catalytic subunit alpha-2 (PRKAA2, Homo sapiens, UniProt P54646)",100
"Serine/threonine-protein kinase TAO1 (TAOK1, Homo sapiens, UniProt Q7L7X3)",100
"Receptor-type tyrosine-protein kinase FLT3, autoinhibited (FLT3, Homo sapiens, UniProt P36888)",80
"NUAK family SNF1-like kinase 2 (NUAK2, Homo sapiens, UniProt Q9H093)",77
"Non-receptor tyrosine-protein kinase TYK2, JH1 (TYK2, Homo sapiens, UniProt P29597)",99
"Serine/threonine-protein kinase WNK1 (WNK1, Homo sapiens, UniProt Q9H4A3)",97
"Casein kinase I isoform delta (CSNK1D, Homo sapiens, UniProt P48730)",96
"Serine/threonine-protein kinase Nek1 (NEK1, Homo sapiens, UniProt Q96PY6)",100
"Ephrin type-A receptor 4 (EPHA4, Homo sapiens, UniProt P54764)",79
"Dual specificity mitogen-activated protein kinase kinase 4 (MAP2K4, Homo sapiens, UniProt P45985)",85
